Measured values pooled from the literature.
Every numbered part comes from another study and shows a few of its results, in no order. “And” joins repeats or separate records; there may be more than shown. Changes are numbered by the printed parent chain.
UniProt Q86UE8, sequence (whole entry, looked up): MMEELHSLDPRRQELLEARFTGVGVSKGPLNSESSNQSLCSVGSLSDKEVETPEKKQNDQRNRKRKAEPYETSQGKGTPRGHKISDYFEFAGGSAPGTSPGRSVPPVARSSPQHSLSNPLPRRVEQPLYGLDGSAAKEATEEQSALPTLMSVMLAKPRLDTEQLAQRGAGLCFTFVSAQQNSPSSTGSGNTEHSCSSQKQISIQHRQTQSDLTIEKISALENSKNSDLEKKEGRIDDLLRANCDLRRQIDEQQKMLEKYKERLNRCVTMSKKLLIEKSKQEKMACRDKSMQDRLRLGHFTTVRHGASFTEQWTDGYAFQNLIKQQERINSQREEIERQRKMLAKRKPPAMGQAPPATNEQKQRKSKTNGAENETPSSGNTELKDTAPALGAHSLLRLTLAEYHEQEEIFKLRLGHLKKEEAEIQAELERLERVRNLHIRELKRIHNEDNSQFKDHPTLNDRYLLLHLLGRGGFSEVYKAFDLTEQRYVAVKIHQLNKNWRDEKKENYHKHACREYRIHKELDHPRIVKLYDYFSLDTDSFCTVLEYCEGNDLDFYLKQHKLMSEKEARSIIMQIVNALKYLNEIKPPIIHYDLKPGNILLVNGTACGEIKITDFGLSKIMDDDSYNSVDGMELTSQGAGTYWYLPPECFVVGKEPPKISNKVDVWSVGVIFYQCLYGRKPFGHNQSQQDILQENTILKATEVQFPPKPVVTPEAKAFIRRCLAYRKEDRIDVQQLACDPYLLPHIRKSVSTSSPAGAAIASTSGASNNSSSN
UniProt Q8IU85, sequence (whole entry, looked up): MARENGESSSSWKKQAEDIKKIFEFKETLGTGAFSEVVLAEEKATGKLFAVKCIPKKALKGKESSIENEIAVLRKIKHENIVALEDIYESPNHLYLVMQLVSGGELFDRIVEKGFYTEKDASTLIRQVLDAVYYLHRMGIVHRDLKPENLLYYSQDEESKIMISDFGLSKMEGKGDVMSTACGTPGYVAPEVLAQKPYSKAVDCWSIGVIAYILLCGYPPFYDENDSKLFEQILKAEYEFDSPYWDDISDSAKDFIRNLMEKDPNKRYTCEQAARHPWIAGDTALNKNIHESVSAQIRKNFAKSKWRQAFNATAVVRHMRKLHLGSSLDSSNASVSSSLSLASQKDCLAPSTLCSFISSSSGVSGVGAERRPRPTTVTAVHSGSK
UniProt P06213, sequence (whole entry, looked up): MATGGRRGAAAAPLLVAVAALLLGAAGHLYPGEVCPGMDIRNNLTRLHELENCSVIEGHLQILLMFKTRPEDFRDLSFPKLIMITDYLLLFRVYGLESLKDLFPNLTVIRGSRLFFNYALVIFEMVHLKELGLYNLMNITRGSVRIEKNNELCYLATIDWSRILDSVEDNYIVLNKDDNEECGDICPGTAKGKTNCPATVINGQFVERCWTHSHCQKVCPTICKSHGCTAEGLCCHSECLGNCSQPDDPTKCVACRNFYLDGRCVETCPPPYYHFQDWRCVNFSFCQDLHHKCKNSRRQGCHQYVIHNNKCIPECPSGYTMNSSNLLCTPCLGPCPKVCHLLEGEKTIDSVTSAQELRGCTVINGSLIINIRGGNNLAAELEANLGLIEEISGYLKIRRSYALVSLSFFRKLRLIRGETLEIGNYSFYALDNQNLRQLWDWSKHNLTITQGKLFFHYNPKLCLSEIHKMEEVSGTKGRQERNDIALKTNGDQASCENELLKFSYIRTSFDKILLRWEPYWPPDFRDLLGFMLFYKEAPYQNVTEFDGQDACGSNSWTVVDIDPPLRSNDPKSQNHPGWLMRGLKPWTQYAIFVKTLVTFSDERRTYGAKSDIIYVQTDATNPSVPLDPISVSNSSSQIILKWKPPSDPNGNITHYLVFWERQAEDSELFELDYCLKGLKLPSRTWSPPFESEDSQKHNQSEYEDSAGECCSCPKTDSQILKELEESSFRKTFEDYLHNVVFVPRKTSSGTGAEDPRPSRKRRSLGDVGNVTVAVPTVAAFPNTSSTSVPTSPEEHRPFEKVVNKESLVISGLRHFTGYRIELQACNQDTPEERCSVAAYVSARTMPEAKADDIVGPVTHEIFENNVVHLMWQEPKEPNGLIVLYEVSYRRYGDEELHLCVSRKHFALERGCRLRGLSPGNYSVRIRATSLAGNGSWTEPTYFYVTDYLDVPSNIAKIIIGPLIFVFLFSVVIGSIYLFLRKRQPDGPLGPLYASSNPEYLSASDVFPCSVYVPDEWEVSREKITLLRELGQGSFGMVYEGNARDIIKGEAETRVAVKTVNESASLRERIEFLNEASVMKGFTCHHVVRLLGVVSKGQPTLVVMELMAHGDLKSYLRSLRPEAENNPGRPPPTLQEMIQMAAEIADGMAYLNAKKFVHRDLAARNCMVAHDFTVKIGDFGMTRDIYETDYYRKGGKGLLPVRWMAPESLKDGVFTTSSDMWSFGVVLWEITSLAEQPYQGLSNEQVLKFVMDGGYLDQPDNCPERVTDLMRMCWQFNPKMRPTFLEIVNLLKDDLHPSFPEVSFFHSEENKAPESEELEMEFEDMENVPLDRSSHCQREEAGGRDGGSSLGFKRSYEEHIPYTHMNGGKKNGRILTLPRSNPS
UniProt P42336, sequence (whole entry, unmodified, looked up): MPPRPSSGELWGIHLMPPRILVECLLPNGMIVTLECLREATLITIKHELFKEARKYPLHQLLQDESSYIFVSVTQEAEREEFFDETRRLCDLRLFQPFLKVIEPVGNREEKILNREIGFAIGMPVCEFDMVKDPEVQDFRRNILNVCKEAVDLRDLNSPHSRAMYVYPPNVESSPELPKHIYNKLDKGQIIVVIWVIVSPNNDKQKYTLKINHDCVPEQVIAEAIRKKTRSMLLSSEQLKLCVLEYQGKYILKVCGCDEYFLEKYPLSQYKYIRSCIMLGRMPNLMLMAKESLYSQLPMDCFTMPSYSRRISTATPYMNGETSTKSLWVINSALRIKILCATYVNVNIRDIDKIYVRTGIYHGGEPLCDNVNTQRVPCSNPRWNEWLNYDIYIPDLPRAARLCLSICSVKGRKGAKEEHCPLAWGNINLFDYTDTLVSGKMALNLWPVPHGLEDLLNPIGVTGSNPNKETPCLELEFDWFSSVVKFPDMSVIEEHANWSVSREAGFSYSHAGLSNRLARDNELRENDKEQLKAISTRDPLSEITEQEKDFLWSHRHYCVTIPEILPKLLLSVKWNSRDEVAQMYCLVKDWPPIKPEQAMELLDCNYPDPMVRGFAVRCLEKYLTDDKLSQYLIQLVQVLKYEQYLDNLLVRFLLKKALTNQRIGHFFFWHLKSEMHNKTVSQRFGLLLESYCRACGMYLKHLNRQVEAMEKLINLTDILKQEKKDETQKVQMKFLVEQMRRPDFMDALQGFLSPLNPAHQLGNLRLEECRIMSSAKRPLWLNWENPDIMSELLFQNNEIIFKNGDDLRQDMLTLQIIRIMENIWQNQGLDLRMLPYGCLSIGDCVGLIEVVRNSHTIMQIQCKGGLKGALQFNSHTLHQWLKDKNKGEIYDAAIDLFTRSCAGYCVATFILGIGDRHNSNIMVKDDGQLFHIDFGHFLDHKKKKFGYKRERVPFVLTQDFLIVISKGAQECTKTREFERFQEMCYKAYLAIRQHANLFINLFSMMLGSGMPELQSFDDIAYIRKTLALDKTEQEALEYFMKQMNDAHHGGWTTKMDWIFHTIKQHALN
UniProt P51955, sequence (whole entry, looked up): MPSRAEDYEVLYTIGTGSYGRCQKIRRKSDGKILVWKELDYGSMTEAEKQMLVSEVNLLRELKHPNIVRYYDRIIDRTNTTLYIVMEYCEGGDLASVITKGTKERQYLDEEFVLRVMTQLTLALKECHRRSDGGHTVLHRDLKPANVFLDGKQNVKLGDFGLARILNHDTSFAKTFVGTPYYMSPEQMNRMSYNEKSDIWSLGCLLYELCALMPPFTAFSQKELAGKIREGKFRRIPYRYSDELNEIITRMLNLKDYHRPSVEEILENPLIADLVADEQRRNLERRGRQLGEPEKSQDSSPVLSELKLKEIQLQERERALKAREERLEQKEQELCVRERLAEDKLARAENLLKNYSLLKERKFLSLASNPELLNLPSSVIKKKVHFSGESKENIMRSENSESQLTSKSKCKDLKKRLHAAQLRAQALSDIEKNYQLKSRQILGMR

Study 1 — measurement: cytotoxicity
SMILES: c1ccc(Oc2ccc(Nc3c4c(nc5ccccc35)CCC4)cc2)cc1
PMA-differentiated THP-1 macrophages; 0.8 µM, 64 h: 4% and 1%
HepG2; resazurin; 66.66 µM, 48 h: 83% and 82%
PMA-differentiated THP-1 macrophages; 20 µM, 64 h: 53% and 47%

Study 2 — cell line: mouse MPNST tumor cells; method: high-content immunofluorescence imaging; refers to: nuclear SOX9; tested at: 10 µM; time: 12 h; setting: mean of 2 replicates; reference: DMSO control; direction: higher = more nuclear SOX9; measurement: nuclear SOX9 intensity
CC(C)(C#N)c1cc(Cn2cncn2)cc(C(C)(C)C#N)c1: 92.2 % of DMSO and 94.3 % of DMSO and 96.1 % of DMSO
CC(C)(C)c1cc(C(=O)C(C#N)=NNc2cccc(Cl)c2)no1: 116 % of DMSO
CC(C)(C)c1ccc(-c2nc3c(N4CCN(Cc5ccc6nccnc6c5)CC4)cccc3[nH]2)cc1: 179 % of DMSO
CCN(CCO)CCCC(C)Nc1ccnc2cc(Cl)ccc12 (centres unmarked): 102 % of DMSO and 98 % of DMSO

Study 3 — method: competition with immobilised ligand; tested at: 1 µM; measurement: remaining binding
SMILES: COc1cc(-c2cn(C3CCc4c(F)cccc4N(CC(F)(F)F)C3=O)nn2)ccc1-n1cnc(C)c1 (centres unmarked)
eIF-2-alpha kinase GCN2, C-terminal kinase domain (EIF2AK4, Homo sapiens, UniProt Q9P2K8, S808G); cell-free assay: 100%
PIK3CA (Homo sapiens, UniProt P42336, M1043I); cell-free assay: 100%
MYLK3 (Homo sapiens, UniProt Q32MK0); cell-free assay: 92%
Mast/stem cell growth factor receptor Kit, autoinhibited (KIT, Homo sapiens, UniProt P10721); cell-free assay: 100%
BRSK2 (Homo sapiens, UniProt Q8IWQ3); cell-free assay: 100%
FLT3 (Homo sapiens, UniProt P36888, F691L/ITD); cell-free assay: 82%
WNK1 (Homo sapiens, UniProt Q9H4A3); cell-free assay: 100%
COQ8A (Homo sapiens, UniProt Q8NI60); cell-free assay: 100%
TLK2 (Homo sapiens, UniProt Q86UE8); cell-free assay: 100%
CSNK1G3 (Homo sapiens, UniProt Q9Y6M4); cell-free assay: 86%
EPHA4 (Homo sapiens, UniProt P54764); cell-free assay: 100%
Tyrosine-protein kinase ABL1, phosphorylated (ABL1, Homo sapiens, UniProt P00519, H396P); cell-free assay: 100%
Tyrosine-protein kinase ABL1, non-phosphorylated (ABL1, Homo sapiens, UniProt P00519, F317I); binding: 79%
HIPK4 (Homo sapiens, UniProt Q8NE63); cell-free assay: 100%
MAP3K20 (Homo sapiens, UniProt Q9NYL2); cell-free assay: 100%
CAMK1D (Homo sapiens, UniProt Q8IU85); cell-free assay: 100%
NEK2 (Homo sapiens, UniProt P51955); cell-free assay: 100%
Insulin receptor (INSR, Homo sapiens, UniProt P06213); cell-free assay: 90%

Study 4 — method: universal PBM; molecule type: double-stranded DNA, one strand shown; medium: in vitro; tested at: not given; direction: higher = stronger binding; measurement: E-score
Target: Sal-like protein 4, full length isoform B (SALL4, Homo sapiens, UniProt Q9UJQ4-2, residues 1-616)
Setting: 8-mer, flanks averaged, mean of replicates
Residues (chain): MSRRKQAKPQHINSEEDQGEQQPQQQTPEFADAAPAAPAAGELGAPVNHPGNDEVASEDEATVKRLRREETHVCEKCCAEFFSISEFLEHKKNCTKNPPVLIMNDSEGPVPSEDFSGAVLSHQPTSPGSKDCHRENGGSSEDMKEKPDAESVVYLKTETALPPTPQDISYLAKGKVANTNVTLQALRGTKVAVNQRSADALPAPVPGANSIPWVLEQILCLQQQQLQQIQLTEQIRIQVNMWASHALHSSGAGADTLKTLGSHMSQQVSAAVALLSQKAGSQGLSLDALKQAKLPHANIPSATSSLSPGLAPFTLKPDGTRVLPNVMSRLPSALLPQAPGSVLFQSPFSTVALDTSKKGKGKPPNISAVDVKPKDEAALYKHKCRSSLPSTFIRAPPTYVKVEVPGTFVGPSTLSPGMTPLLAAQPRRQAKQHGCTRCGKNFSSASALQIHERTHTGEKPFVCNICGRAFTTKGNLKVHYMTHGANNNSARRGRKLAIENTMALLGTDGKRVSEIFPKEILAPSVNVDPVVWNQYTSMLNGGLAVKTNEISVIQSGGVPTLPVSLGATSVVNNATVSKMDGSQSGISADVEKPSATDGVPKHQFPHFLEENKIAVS
AAAGTTGC: -0.0815
ATGTCCTC: 0.138
ATGTATTC: 0.128
CCCTGGCA: -0.232
TAGCAGAA: -0.0001
AGGGACAA: -0.137
ATTGAGCG: -0.0898
GAGAAACA: 0.173

Study 5 — target: MAFK, bZIP domain (human); method: DHFR protein complementation; medium: yeast; reference: wild-type JUN-FOS pair; direction: higher = stronger binding; measurement: binding fitness
Setting: single substitutions, most at no-binding floor
Parent: JUN, bZIP domain (human); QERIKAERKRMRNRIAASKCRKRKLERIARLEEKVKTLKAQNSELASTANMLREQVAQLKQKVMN; partner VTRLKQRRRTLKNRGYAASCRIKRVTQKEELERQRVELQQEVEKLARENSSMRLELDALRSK
L45V: -1.48 natural log
K36F: -1.56 natural log
R30T: -1.4 natural log
K36H: -1.5 natural log
L38M: -1.55 natural log
A49K: -1.41 natural log
M51D: -1.59 natural log
A49T: -1.54 natural log
